Experimental data of several laboratories.
Each line is one published result; not all experiments were run side by side.
Target: Serine/threonine-protein kinase SIK3 (SIK3, Homo sapiens, UniProt Q9Y2K2)
Sequence of UniProt Q9Y2K2 (whole entry, looked up): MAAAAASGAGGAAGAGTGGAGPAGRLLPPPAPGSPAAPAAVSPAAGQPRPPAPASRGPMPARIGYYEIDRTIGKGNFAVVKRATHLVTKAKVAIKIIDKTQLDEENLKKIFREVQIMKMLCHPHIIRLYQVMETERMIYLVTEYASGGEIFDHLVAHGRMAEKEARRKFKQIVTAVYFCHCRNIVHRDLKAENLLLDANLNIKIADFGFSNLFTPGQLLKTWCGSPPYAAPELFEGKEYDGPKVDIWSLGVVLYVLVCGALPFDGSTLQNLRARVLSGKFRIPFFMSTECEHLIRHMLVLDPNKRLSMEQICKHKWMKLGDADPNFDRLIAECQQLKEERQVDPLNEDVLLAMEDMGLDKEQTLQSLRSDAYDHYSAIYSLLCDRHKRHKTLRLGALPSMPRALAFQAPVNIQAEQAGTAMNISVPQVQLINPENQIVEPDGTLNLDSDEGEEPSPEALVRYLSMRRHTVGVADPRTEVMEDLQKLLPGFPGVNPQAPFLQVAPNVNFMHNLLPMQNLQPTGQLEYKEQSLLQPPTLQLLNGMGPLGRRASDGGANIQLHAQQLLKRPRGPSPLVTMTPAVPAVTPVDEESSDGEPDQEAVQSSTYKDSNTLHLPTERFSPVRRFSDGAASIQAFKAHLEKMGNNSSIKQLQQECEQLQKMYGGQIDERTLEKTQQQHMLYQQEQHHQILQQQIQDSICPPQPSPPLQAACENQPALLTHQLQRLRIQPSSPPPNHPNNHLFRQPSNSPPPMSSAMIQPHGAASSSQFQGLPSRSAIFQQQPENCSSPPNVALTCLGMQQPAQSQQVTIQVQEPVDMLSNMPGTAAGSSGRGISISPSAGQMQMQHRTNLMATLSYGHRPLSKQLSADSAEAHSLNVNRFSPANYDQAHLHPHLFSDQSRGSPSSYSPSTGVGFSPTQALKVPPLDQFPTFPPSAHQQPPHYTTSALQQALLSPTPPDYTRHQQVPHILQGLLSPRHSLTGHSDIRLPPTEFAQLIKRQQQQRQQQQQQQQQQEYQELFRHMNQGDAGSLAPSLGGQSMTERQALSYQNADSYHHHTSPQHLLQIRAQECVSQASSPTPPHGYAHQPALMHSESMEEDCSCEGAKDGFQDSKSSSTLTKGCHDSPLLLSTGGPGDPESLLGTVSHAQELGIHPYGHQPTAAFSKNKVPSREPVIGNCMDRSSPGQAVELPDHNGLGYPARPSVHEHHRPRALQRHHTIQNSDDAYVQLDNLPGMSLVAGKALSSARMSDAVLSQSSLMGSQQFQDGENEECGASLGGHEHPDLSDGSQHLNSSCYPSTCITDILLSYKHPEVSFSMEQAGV

SMILES | assay | conditions | scale | measurement | result
COc1cc(-c2cncc3c2CN(C)Cc2cc(N4CCNCC4)ccc2-3)cc(OC)c1OC | kinase activity | 1 µM, human enzyme, together with: ATP 10 µM | reference: DMSO control | remaining activity | 102%
C=CC(=O)N1CCC(COCC(=O)N2CCN(c3nc(-c4cnc(N)nc4C(F)F)nc(N4CCOC[C@@H]4C)n3)CC2)CC1 | KINOMEscan | 1 µM | reference: DMSO control | remaining binding | 98%
C[C@@H](c1ccc(-n2cnc3c(N)ncnc32)cc1)N1CCc2nn(C)c(Cc3ccccc3)c2C1=O | KINOMEscan | 0.1 µM | reference: DMSO control | remaining binding | 68%
C=CC(=O)N1CCC(C(=O)NCC(=O)N2CCN(c3nc(-c4cnc(N)nc4C(F)F)nc(N4CCOCC4)n3)CC2)CC1 | KINOMEscan | 1 µM | – | remaining binding | 76%
CNc1ncc2c(/C=C/C(=O)N3CCC(OC)CC3)nn(Cc3cccc(C(F)(F)F)c3)c2n1 | kinase activity, inhibitor | 1 µM | reference: untreated control | remaining activity | 99%
C1=C/COCc2cc(ccc2OCCN2CCCC2)Nc2nccc(n2)-c2cccc(c2)COC/1 | kinase binding panel | concentration not given | reference: control | remaining binding | 83%
O=C(NC1CCC1)c1ccc2nc(-c3cccc(NS(=O)(=O)NCCN4CCCCC4)c3)cn2c1 | enzyme activity | 10 µM | – | remaining activity | 100%
COc1cc(N2CCN(C)CC2)ccc1Nc1nc(N)n(C(=S)NCc2c(Cl)cccc2Cl)n1 | enzyme activity | 10 µM | reference: control | remaining activity | 13%
